# Results from different studies.
# Each line is one published result; not all experiments were run side by side.
# UniProt Q8NFD2, sequence (whole entry, looked up): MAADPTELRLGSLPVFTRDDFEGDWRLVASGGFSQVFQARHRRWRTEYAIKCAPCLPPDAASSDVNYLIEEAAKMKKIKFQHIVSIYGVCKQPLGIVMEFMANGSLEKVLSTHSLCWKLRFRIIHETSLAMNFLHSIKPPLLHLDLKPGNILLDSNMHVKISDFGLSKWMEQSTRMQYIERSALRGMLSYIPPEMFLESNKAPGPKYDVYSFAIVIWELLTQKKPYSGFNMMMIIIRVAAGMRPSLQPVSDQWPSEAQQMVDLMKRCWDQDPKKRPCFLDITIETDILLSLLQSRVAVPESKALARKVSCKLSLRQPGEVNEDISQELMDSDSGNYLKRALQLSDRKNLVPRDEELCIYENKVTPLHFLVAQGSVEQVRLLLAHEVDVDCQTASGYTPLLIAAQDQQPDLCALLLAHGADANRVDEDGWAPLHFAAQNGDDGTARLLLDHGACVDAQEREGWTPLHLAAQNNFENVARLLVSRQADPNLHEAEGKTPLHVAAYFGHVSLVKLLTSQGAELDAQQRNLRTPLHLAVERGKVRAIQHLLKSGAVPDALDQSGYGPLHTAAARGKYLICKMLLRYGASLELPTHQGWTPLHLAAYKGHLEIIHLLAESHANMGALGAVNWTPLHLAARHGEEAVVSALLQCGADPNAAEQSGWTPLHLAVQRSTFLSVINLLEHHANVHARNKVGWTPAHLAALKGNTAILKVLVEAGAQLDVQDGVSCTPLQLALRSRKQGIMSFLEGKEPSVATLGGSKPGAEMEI
# UniProt P21397, sequence (whole entry, looked up): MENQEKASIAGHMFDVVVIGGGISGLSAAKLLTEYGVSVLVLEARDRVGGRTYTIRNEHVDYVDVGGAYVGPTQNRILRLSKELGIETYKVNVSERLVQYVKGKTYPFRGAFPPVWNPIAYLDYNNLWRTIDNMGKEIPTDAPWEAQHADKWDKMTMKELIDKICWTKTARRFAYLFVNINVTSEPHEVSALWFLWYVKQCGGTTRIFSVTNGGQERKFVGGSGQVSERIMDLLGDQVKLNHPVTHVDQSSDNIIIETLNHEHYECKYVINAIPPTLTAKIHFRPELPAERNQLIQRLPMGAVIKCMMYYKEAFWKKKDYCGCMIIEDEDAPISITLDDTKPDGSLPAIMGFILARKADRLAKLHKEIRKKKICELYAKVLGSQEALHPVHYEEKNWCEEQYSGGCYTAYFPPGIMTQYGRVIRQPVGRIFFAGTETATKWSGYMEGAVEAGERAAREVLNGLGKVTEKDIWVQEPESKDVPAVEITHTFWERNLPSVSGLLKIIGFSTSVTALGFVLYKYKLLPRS
# UniProt P35372, sequence (whole entry, looked up): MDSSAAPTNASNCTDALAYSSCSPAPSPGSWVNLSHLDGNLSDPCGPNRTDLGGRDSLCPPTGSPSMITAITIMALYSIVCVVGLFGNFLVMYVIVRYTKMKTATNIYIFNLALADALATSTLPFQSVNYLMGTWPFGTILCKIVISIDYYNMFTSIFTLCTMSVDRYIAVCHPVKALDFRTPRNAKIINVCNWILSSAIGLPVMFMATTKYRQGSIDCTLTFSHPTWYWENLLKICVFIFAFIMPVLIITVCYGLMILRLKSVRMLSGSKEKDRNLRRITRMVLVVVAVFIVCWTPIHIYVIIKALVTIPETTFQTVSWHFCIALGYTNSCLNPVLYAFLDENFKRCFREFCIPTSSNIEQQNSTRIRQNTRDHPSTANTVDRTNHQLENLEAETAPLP
# UniProt O60741, sequence (whole entry, looked up): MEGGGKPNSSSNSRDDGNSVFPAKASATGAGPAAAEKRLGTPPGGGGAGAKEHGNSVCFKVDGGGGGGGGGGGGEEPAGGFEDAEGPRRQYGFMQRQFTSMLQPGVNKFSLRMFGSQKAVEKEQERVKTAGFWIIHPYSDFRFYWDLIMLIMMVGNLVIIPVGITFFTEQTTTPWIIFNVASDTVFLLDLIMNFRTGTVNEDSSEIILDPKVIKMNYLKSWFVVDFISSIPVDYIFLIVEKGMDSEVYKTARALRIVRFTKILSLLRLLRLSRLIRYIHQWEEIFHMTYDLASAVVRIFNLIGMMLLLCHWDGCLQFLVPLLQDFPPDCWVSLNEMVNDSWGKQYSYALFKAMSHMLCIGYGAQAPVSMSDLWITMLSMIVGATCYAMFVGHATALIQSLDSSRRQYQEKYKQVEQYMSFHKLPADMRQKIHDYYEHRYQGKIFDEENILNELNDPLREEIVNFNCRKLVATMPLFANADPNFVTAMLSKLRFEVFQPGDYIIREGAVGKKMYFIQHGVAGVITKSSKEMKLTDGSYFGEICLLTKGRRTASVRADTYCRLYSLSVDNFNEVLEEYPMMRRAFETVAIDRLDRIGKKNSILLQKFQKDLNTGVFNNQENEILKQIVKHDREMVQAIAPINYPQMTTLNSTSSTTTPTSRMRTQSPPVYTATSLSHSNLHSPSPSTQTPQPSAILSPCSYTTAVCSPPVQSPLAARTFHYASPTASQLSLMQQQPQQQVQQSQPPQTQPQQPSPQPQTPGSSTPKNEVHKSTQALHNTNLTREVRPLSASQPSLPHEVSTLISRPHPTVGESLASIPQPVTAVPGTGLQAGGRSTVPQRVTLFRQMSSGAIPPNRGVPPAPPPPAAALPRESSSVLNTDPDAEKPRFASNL
# UniProt Q01959, sequence (whole entry, looked up): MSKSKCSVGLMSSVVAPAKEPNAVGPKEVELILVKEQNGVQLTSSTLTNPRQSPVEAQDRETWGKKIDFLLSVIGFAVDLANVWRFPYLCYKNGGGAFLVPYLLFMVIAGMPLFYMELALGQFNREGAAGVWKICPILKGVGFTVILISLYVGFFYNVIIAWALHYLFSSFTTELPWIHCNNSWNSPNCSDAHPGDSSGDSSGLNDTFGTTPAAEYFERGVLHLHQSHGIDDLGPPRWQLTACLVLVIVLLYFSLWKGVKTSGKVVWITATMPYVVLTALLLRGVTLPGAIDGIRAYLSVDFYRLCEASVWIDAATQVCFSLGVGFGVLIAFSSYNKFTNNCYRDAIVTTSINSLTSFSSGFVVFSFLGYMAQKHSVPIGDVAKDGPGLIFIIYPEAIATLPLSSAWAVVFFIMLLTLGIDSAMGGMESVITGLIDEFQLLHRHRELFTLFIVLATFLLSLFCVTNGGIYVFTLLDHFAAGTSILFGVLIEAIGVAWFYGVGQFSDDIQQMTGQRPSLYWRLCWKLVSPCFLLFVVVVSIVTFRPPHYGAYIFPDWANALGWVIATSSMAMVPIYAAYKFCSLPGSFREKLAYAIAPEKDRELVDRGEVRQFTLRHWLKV
# UniProt P51956, sequence (whole entry, looked up): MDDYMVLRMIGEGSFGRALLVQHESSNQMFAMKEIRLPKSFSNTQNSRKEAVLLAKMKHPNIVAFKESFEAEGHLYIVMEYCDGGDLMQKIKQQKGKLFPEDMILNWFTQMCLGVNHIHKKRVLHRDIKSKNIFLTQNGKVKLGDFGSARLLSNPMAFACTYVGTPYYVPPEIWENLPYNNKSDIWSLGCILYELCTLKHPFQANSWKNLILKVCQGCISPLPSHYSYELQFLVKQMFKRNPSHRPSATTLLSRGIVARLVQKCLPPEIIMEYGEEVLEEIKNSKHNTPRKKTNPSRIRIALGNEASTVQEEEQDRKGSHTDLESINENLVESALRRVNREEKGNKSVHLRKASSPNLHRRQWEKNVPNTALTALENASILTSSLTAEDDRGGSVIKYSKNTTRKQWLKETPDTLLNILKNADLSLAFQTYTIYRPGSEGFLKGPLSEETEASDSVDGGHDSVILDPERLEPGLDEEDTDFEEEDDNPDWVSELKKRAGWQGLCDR
# UniProt P54646, sequence (whole entry, looked up): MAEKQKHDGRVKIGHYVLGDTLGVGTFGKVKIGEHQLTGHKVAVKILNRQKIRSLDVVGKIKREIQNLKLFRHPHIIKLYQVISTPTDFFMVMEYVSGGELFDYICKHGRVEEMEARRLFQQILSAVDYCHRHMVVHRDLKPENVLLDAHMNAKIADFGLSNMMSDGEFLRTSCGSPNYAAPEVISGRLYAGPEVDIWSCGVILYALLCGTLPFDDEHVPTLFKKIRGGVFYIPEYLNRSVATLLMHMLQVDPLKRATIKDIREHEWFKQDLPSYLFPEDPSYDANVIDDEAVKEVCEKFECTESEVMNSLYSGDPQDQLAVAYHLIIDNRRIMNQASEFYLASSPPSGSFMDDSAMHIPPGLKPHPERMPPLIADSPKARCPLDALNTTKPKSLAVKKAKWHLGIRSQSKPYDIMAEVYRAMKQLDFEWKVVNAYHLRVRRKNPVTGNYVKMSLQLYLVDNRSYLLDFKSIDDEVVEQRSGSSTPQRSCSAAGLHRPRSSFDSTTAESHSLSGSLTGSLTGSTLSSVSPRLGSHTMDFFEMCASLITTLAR
Structure (SMILES),target,assay,system,conditions,endpoint,value
Oc1cccc(N2CCN(CCCc3ccccc3)CC2)c1,"OPRM1 (Homo sapiens, UniProt P35372)","cAMP, agonist",OPRM1,,Emax,0%
C#Cc1n[nH]c2c(-c3cn([C@@H](C)c4ccccn4)c(=O)[nH]c3=O)cc(F)cc12,"MAP4K1 (Homo sapiens, UniProt Q92918)","enzyme activity, inhibitor",,0.1 µM,inhibition,-1.4%
Nc1ncc(-c2nc(N3CCOCC3)nc(N3CCOCC3)n2)c(C(F)F)n1,"ANKK1 (Homo sapiens, UniProt Q8NFD2)","binding, competition with immobilised ligand",,10 µM,remaining binding,54%
Cc1nn(C)cc1-c1nc2c(N3CCN(Cc4ccc(Cl)cc4)CC3)c(Cl)cnc2[nH]1,"FLT3 (Homo sapiens, UniProt P36888, D835H)","binding, competition with immobilised ligand",,1 µM,remaining binding,0.75%
CN1CCC[C@H]1c1cccnc1,"SLC6A3 (Homo sapiens, UniProt Q01959)",ligand displacement,,50 µM,inhibition,-6.15%
CC(C)CC(=O)OC[C@H]1O[C@@](C#N)(c2ccc3c(N)ncnn23)[C@H](O)[C@@H]1O,"MAOA (Homo sapiens, UniProt P21397)","enzyme activity, inhibitor",,20 µM,inhibition,-2%
[2H]c1c([2H])c([C@]2([2H])CCCN2C(=O)C(C)(C)Oc2ccc3cn[nH]c3c2)c([2H])c([2H])c1C([2H])([2H])[2H],"PRKAA2 (Homo sapiens, UniProt P54646)","binding, competition with immobilised ligand",,1 µM,remaining binding,100%
Cc1nnc(SCC2=C(C(=O)O)N3C(=O)[C@@H](NC(=O)Cn4cnnn4)[C@H]3SC2)s1,"Potassium/sodium hyperpolarization-activated cyclic nucleotide-gated channel 1 (Homo sapiens, UniProt O60741)","ion current, inhibitor",,10 µM,inhibition,-1.4%
COc1ncccc1-c1cnn2ccc(N3CCN(C(=O)OC(C)C)CC3)nc12,"NEK3 (Homo sapiens, UniProt P51956)","binding, competition with immobilised ligand",,1 µM,remaining binding,84%
